Measured values pooled from the literature.
Each numbered part is a random draw from the data of one study; scales do not carry over between parts.

Sample 1
Target: Prothrombin, mature alpha-thrombin (F2, Homo sapiens, UniProt P00734)
Technique: aptamer microarray, sandwich
Molecule type: DNA with 2'F-ANA
Sample: in vitro
Tested at: 200 nM
Setting: whole 15-mer aptamer, many near background
Added: Cy3 exosite-II aptamer, 400 nM
Reading: higher = stronger binding
Oligonucleotide	mean fluorescence intensity [a.u.]
GGTTGGTGTGGTTGG (2'F-ANA at 1 2 6 7 12 15)	311
GGTTGGTGTGGTTGG (2'F-ANA at 1 2 8 9 11 12)	310
GGTTGGTGTGGTTGG (2'F-ANA at 1 6 8 9 11)	143

Sample 2
Target: Interferon regulatory factor 5, full length, phosphomimetic (IRF5, Homo sapiens, UniProt Q13568-2, residues 1-514, S451D/S453D/S456D/S462D)
Technique: protein-binding microarray
Molecule type: double-stranded DNA, one strand shown
Sample: in vitro
Tested at: 940 nM top
Setting: 60-bp whole probe
Added: salmon DNA 0.4 mg/ml
Reference: random background probes
Reading: higher = stronger binding
Oligonucleotide	fitted relative affinity [z-score]
GCCTAGCACGACGGTTTCGGGTTTCGGGGCGTGCTAGTCTTGATTCGCTTGACGCTGCTG	9.15
GCCTAGCACGACGATATCAGTTTGGAGACGTGCTAGGTCTTGATTCGCTTGACGCTGCTG	-0.175
GCCTAGCACGACAGTATCCTTCTCCTGACGTGCTAGGTCTTGATTCGCTTGACGCTGCTG	1.09

Sample 3
Target: Histone acetyltransferase KAT6A, winged helix 1, GST fusion (KAT6A, Homo sapiens, UniProt Q92794, residues 1-85)
Technique: protein binding microarray
Molecule type: double-stranded DNA, one strand shown
Sample: in vitro
Tested at: not given
Setting: 8-mer, flanks averaged, mean of 2 arrays, mostly near background
Reference: not given
Reading: higher = stronger binding
Residues (chain): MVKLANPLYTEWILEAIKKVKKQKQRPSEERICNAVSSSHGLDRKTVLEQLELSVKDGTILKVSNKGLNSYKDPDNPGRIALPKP
Oligonucleotide	E-score
AGTTTAGC	-0.0463
ATGGTTCC	-0.0281
ATTGCCGG	0.351

Single results of other studies
Molecule	target	test	test system	conditions	scale	endpoint	result
PhoQ, residues 284 288 289 292 302 303 NLGVHL	PhoP, residues 12 14 15 18 19 VQGLL (Escherichia coli, UniProt P23836)	Sort-seq, refers to: YFP reporter	E. coli	PhoQ-PhoP variant library, added: 10 µM Mg2+	reference: high Mg2+ state, higher = stronger signaling	fold induction	2.81

Repeated from above (sample 2):
Oligonucleotide	fitted relative affinity [z-score]
GCCTAGCACGACGATATCAGTTTGGAGACGTGCTAGGTCTTGATTCGCTTGACGCTGCTG	-0.175
